Experimental data gathered from unrelated publications.
Lines come from different studies, so protocols differ.
Organism: Bacillus subtilis

Compound | assay | system | setting | MIC
N=C(N)NCCC[C@H](NC(=O)[C@H](Cc1c[nH]c2ccccc12)NC(=O)[C@@H](N)CCCNC(=N)N)C(=O)N[C@@H](Cc1c[nH]c2ccccc12)C(=O)N[C@@H](CCC(N)=O)C(=O)N[C@@H](Cc1ccccc1)C(=O)N[C@@H](CCC(N)=O)C(=O)N[C@@H](Cc1ccccc1)C(=O)N[C@@H](CCCCN)C(N)=O | broth microdilution, optical density |  |  | 19 µM
CCCCCCCCCCCCN(C)C(=O)CP(=O)(O)O |  | ATCC 23857 |  | > 200 µg/mL
CC[C@H](C)[C@H](NC(=O)[C@@H](NC(=O)[C@H](Cc1ccccc1)NC(=O)CNC(=O)[C@H](CCC(N)=O)NC(=O)[C@H](CCCCN)NC(=O)[C@H](C)N)C(C)C)C(=O)N[C@@H](Cc1ccc(O)cc1)C(=O)N[C@@H](CCCNC(=N)N)C(=O)N[C@H](C(=O)N[C@@H](CCCNC(=N)N)C(=O)N[C@H](C(=O)N[C@@H](CCCNC(=N)N)C(=O)N[C@@H](CCCNC(=N)N)C(=O)NCC(=O)N[C@@H](CC(N)=O)C(=O)N[C@@H](CCCNC(=N)N)C(=O)N[C@@H](CCCCN)C(N)=O)C(C)C)C(C)C | broth dilution | KCTC 3068 |  | 3.1 µM
CCCCCCCCCC(=O)N[C@@H](Cc1c[nH]c2ccccc12)C(=O)N[C@H](CC(N)=O)C(=O)N[C@@H](CC(=O)O)C(=O)N[C@@H]1C(=O)NCC(=O)N[C@@H](CCCN)C(=O)N[C@@H](CC(=O)O)C(=O)N[C@H](C)C(=O)N[C@@H](CC(=O)O)C(=O)NCC(=O)N[C@H](CO)C(=O)N[C@@H]([C@H](C)CC(=O)O)C(=O)N[C@@H](CC(=O)c2ccccc2N)C(=O)O[C@@H]1C | broth microdilution | ATCC 6633 | 24 h | 7.7 µM
CCCCCCCCCCCCCCCC(=O)NS(=O)(=O)OCC |  | ATCC 23857 |  | > 200 µg/mL
CC[C@H](C)[C@H](NC(=O)[C@H](CC(C)C)NC(=O)[C@H](CCCCN)NC(=O)[C@@H](NC(=O)[C@H](C)NC(=O)[C@H](CCC(=O)O)NC(=O)[C@H](Cc1c[nH]cn1)NC(=O)[C@@H](NC(=O)[C@H](CCCCN)NC(=O)[C@H](CCC(N)=O)NC(=O)[C@H](Cc1ccccc1)NC(=O)[C@@H](NC(=O)[C@H](CCCCN)NC(=O)[C@@H](N)CCCCN)C(C)C)[C@@H](C)CC)[C@@H](C)CC)C(N)=O | broth microdilution | KCTC 1998 | 18 h, 37 °C | 32 µM
CCCCCCCNC(=O)CP(=O)(O)O |  | ATCC 23857 |  | > 200 µg/mL
N=C(N)NCCC[C@H](NC(=O)[C@@H](N)CCCNC(=N)N)C(=O)N[C@@H](Cc1c[nH]c2ccccc12)C(=O)N[C@@H](Cc1c[nH]c2ccccc12)C(=O)N[C@@H](CCC(N)=O)C(=O)N[C@@H](Cc1ccccc1)C(=O)N[C@@H](CCC(N)=O)C(=O)N[C@@H](Cc1ccccc1)C(=O)N[C@@H](CCCCN)C(N)=O | broth microdilution, optical density |  |  | 9.6 µM
CC[C@H](C)[C@H](N)C(=O)N[C@@H](CCCNC(=N)N)C(=O)N[C@H](C(=O)N[C@@H](Cc1c[nH]c2ccccc12)C(=O)N[C@@H](Cc1c[nH]c2ccccc12)C(=O)N[C@@H](CCCCN)C(=O)N[C@H](C(=O)N[C@H](C(=O)N[C@@H](CCCNC(=N)N)C(=O)N[C@@H](CCCCN)C(=O)N[C@@H](Cc1c[nH]c2ccccc12)C(=O)N[C@@H](CCCCN)C(=O)N[C@@H](C)C(=O)N[C@H](C(=O)N[C@@H](Cc1c[nH]c2ccccc12)C(=O)N[C@@H](Cc1c[nH]cn1)C(N)=O)[C@@H](C)CC)C(C)C)[C@@H](C)CC)C(C)C | broth dilution | KCTC 3068 |  | 25 µM
CC[C@H](C)CCCCC(=O)N[C@@H](CCN)C(=O)N[C@H](C(=O)N[C@@H](CCN)C(=O)N[C@H]1CCNC(=O)[C@H]([C@@H](C)O)NC(=O)[C@H](CCN)NC(=O)[C@H](CCN)NC(=O)[C@H](CC(C)C)NC(=O)[C@@H](Cc2ccccc2)NC(=O)[C@H](CCN)NC1=O)[C@@H](C)O | broth microdilution | ATCC 6633 | 24 h, 37 °C | 4 µg/mL
N=C(N)NCCC[C@H](NC(=O)[C@H](Cc1c[nH]c2ccccc12)NC(=O)[C@H](CCCNC(=N)N)NC(=O)[C@@H](N)Cc1c[nH]c2ccccc12)C(=O)N[C@@H](Cc1ccccc1)C(=O)N[C@@H](CCC(N)=O)C(=O)N[C@@H](Cc1ccccc1)C(=O)N[C@@H](CCC(N)=O)C(=O)N[C@@H](Cc1ccccc1)C(=O)N[C@@H](CCCCN)C(N)=O | broth microdilution, optical density |  |  | 35 µM
CC(C)C[C@H](NC(=O)[C@@H](NC(=O)[C@H](CCCNC(=N)N)NC(=O)[C@H](CCC(N)=O)NC(=O)[C@H](Cc1ccccc1)NC(=O)[C@H](Cc1ccc(O)cc1)NC(=O)[C@H](CC(N)=O)NC(=O)[C@H](Cc1c[nH]c2ccccc12)NC(=O)[C@@H](NC(=O)[C@H](CCCNC(=N)N)NC(=O)[C@H](CCCCN)NC(=O)[C@@H](N)Cc1ccccc1)C(C)C)C(C)C)C(=O)N[C@H](C(=O)N[C@@H](CCCCN)C(=O)N[C@@H](CCCCN)C(N)=O)C(C)C | broth dilution | KCTC 3068 |  | 3.1 µM
CC[C@H](C)[C@H](NC(=O)[C@H](CC(C)C)NC(=O)[C@H](CCCCN)NC(=O)[C@@H](NC(=O)[C@H](C)NC(=O)[C@H](CCC(=O)O)NC(=O)[C@H](Cc1c[nH]cn1)NC(=O)[C@@H](NC(=O)[C@H](CCCCN)NC(=O)[C@H](CCC(N)=O)NC(=O)[C@H](Cc1ccccc1)NC(=O)[C@@H](NC(=O)[C@H](CCCCN)NC(=O)[C@H](CCCCN)NC(=O)[C@H](CC(C)C)NC(=O)[C@H](C)N)C(C)C)[C@@H](C)CC)[C@@H](C)CC)C(N)=O | broth microdilution | KCTC 1998 | 18 h, 37 °C | 8 µM
c1ccc(CCOC2CCCc3c2[nH]c2ccccc32)cc1 (centres unmarked) | broth microdilution | 168 |  | 512 µg/mL
